Results from different studies.
Numbered parts are unrelated; each lists some results of a single study.

Set 1
Target: RING finger protein unkempt homolog, zinc fingers 1-6, GST-SBP tag (UNK, Homo sapiens, UniProt Q9C0B0, residues 30-357)
Technique: RNA Bind-n-Seq
Molecule type: RNA
Matrix: in vitro
Tested at: not given
Setting: RNA with constant flanks, human and mouse sites, ends assumed
Reference: input RNA pool
Direction: higher = stronger binding
Residues (chain): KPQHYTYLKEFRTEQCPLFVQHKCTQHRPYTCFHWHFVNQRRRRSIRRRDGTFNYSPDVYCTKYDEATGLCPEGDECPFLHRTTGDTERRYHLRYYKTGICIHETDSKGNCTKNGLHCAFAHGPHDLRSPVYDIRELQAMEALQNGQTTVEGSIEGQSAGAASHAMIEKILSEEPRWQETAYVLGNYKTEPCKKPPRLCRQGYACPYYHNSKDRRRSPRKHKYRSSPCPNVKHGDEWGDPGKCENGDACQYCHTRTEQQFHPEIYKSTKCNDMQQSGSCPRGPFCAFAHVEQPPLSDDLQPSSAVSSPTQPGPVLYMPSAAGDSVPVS
Sequence | bound/input enrichment
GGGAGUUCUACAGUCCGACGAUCGAAACCACUUAUCCAAAUACUUACAUUUUUGACUUGUUUGGAGGUGUUGAUCUUCUUGUAGAAAUUCUUAUGAGGCCUACGAUCUCUAUCCGGGGACAGAAACUGAAAAUAAGUGAUGAACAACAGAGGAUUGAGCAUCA | 0.275 ratio
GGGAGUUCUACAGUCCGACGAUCAGGUAUCAUUGCCCAGUGCCUAAGAUCUUUUAUGUUCAGCUCACUGUAGGAAAUAAUGAAUUUUUUGGGGAAGGAAAGACUCGACAAGCUGCUAGACACAAUGCUGCAAUGAAAGCCCUCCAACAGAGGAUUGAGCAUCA | 5.24 ratio
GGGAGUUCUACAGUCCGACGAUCCAGGCUAUCUCUCAGCAGCACCUACAGGAAGCAGGUGCACGGGAGUGGAGCUCUCAGAGUGCAUCCAUGUCAGAGUCACUGUCUAUCCCUGCAUCCCUGAAUGAUGCAGCUUUGGCUCAACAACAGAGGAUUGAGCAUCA | 0.0502 ratio
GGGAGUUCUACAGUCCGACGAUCGAAUUGCCAGAGAGGGCAACAAAUCCAUUUGUAAAUAGAGAGUCAGCAGAGUUUUCAGUAUUAGAAUACUCAGAAAUGGGAUCAUCUUUCAAUGGCUCCCCAAAAGGAGAGUCAGCCAUGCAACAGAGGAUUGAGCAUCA | 0.33 ratio
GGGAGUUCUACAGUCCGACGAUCCUCUAUUUUUUUACUAUGGCUGGCAGUGUAUGGUGGGUAAUUCUUACCAUCACAUGGUUUUUAGCAGCUGUGCCAAAGUGGGGUAGUGAAGCUAUUGAGAAGAAAGCAUUGCUGUUUCACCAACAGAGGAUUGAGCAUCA | 0.336 ratio
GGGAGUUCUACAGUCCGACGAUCGCCAUGACACUUGAUGAGACUAGUGUGUCUGCCCUAGUUGGAUUUAUCCAAUGUCAGUUGAUAGAAGGGCAAUUACAGGAUGCAGAUCAGCAGCUAGAAUUUUUAAAUGAAAUCCAGCAACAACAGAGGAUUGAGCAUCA | 0.486 ratio
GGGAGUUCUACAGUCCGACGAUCACAGCCAUCUGGAAUUUACUAGUUACAACGGGUCAAGAGGUUAAAUAUGAUUUGUUGGUAAGUAAUGCAAUUCAAUUUCUGGCUUCAGUUUGUGAGAGACCUCAUUAUAAGAAUCUAUUUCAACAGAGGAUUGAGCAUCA | 0.228 ratio
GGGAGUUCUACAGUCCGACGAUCACCAUGCACAAUUUUGUACGGAAGACAUUCUUCAGCCUGGCCUUCUGUGACUUCUGCCUUAAGUUUCUGUUCCAUGGAUUCCGCUGCCAGACCUGUGGCUACAAGUUCCACCAGCAUUGUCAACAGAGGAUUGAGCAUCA | 0.182 ratio
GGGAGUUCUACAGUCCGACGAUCGAGAAAGGCACCAUGGAGAAGAGUGGCCUGGAGUCCGCUGUCUGUGUGACCAAUGUCAGGUCAUUCACGUCUGCGUUUCUCUUCUCCAUUGAGGUUCAAGUGACCAUUGGGUUUGGAGGGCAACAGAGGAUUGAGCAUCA | 0.109 ratio
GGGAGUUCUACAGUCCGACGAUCAGCAAAACAUACAAGAUUGAUUCUUGGGAGAAUGCUGAGGACUUUCUUGAGAAGCUCGCUUUCCGGACUGGGAAGUUACUAAAGGGUGGAGAGCCCGACUUGCAGACUGUGGGUAAGAUGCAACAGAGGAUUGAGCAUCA | 0.385 ratio
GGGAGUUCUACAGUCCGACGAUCGCAUUGGCCCAAGCUGAACUUCUUAAGCGCCAGGAAGAACUAGAAAGAAAAGCCGCAGAAUUAGAUCGUCGGGAACGAGAAAUGCAAAACCUCAGUCAACAUGGUAGAAAAAAUAAUUGGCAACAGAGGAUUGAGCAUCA | 1.04 ratio

Set 2
Target: Fragile X messenger ribonucleoprotein 1, C-terminal low-complexity region (Fmr1, Mus musculus, UniProt P35922)
Technique: RNA Bind-n-Seq
Molecule type: RNA
Matrix: in vitro
Tested at: 200 nM
Setting: whole 134-nt RNA, ends assumed
Added: 150 mM KCl
Reference: input library
Direction: higher = stronger binding
Sequence | log2 enrichment
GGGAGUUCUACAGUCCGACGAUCUCAAGUCCUGUGCUACACAUCGUAUGUACCGAAUCGGUUUGGUUUGGUUUGGGGAAAGUAUUAUGUUACGCCGUUCGGAUCUGCACUUCCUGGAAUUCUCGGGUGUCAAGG | -0.368
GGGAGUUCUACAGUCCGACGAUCUGGGAGGUGGAUUUUGUUUAUUUUUUUAGCUCAUUUCCAGGGGUGGGAAUUUUUUUUUAAUAUGUGUCAUGAAUAAAGUUGGUUUUGAAAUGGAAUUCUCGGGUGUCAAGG | 0.251
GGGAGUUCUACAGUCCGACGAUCCCUGUGCUACACAUCGUAUGUACCGAAUCAAAUUUUUAAAUUUUUUUAAAUUUUUUUAAAAAAGUAUUAUGUUACGCCGUUCGGAUCUGCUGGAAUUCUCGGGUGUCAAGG | -0.97
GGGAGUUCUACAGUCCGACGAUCAAGUCCUGUGCUACACAUCGUAUGUACCGAAUCAAAUUUAAACCCAAAUUUUUAAAAAAGUAUUAUGUUACGCCGUUCGGAUCUGCACUUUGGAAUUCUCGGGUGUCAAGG | 0.0939
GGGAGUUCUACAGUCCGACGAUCCAAGUCCUGUGCUACACAUCGUAUGUACCGAAUCGGUGGUUUUUUUGGAAAAAGGAAAGUAUUAUGUUACGCCGUUCGGAUCUGCACUUCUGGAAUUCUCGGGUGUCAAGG | -0.623
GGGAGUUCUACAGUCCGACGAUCCACAGACAACACGCACCCACACAGACACAGAGAAAAGGGGUUGGGAUGGGGACAGGGUGCACAGCAGGGCGGGGUAGGACCCCAGCCCCUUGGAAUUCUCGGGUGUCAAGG | 1.23
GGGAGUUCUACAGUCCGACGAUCACCAUGCAGGUGGGCAUCUUUGGGAAGUGGGGCCAGGGGGGGAUAGGGAGGGGGGUAACACUUUGGGAACAGGUGGUCCCAGGUCGUUUCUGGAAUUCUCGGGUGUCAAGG | 0.941
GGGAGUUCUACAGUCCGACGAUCUGUCAUGGAUUCAAGUUAUUAAAAGCAUAAGUUUGGAAGACAGGCUUGCCGAAAUUGAGGACAUGAUUAAAAUUGCAGUGAAGUUUGAAAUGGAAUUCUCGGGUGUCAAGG | -2.28
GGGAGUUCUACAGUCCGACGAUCCUGUGCUACACAUCGUAUGUACCGAAUCGGGCCCCCCCGGCCCCCCCGGGCCCCCCCGGGGAAAGUAUUAUGUUACGCCGUUCGGAUCUGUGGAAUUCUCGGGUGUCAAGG | -1.11
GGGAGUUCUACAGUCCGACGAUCAAGUCCUGUGCUACACAUCGUAUGUACCGAAUCGGGGAAAAGGGAAAAGGGAAAAGGAAAGUAUUAUGUUACGCCGUUCGGAUCUGCACUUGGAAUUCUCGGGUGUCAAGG | -0.272

Set 3
Target: Histone acetyltransferase KAT6A, winged helix 1, GST fusion (KAT6A, Homo sapiens, UniProt Q92794, residues 1-85)
Technique: protein binding microarray
Molecule type: double-stranded DNA, one strand shown
Matrix: in vitro
Tested at: not given
Setting: 8-mer, flanks averaged, mean of 2 arrays, mostly near background
Reference: not given
Direction: higher = stronger binding
Target sequence (chain): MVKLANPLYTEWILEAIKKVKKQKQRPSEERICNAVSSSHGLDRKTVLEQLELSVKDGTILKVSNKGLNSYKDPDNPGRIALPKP
Sequence | E-score
GTTAGCCA | -0.00835
GCGCGCCC | 0.426
CTGATGCC | -0.131
CCCTTATA | -0.00106
AAGATTTA | -0.105
AAGCCGCG | 0.422
ACGCATAT | -0.00108
CGTACGGA | 0.286
CCATATAG | 0.0165
AGTCTAAC | 0.0255
CTGTTGAC | -0.229
ATAGAGAT | -0.132
CGGTTGAA | 0.00901
CAGAAAAG | -0.13
GGTGTGAA | -0.0652
ACGTAAAA | -0.07
CCAGACCC | 0.0281

Set 4
Target: RNA binding protein fox-1 homolog 2, RRM domain, GST-SBP tag (RBFOX2, Homo sapiens, UniProt O43251-10, residues 100-194)
Technique: RNA Bind-n-Seq
Molecule type: RNA
Matrix: in vitro
Tested at: 365 nM
Setting: natural RNA segment, single round, ends assumed
Reference: no-protein control
Direction: higher = stronger binding
Target sequence (chain): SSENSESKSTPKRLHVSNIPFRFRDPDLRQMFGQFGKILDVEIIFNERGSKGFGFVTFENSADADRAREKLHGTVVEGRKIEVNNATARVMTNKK
Sequence | RBNS enrichment (R)
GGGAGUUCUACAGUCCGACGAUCGUGCUCAGAUGGGCUCAUCGUUGGUUCGUUUUUACUGUAUAUUUAUAGUAAUAAAAUCAUGCAGCAAUAUCCUGUCUGCUCCUUCCUCCGGGUGCAGCCCUCAGGAUUGUUGGAAUUCUCGGGUGCCAA | 0.211
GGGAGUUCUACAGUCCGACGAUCAAAAUUAUGUUGUAGAAAAAAAAUCAACCUCUCCCAGGUGCAUUAAGAAAUAAGAAUUCCCAGGGUUACUCACCCAUGCGUAAGCUACCCAAGUUUAAUUUGGUAGCUGAUGGAAUUCUCGGGUGCCAA | 0.531
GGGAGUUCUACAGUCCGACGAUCAAGCAGCAUUCUGCCUGAAGCAGGUAGAAGGCUUUGCUGCUCAUGGAAGCUGGUAGGGAACUUAAAAGGCAUGGGAGGGAGGACUGGACAGUGGUCGCUCCGGUGGGUAAUGGAAUUCUCGGGUGCCAA | 1.29
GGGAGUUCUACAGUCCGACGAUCAUGGAAGAGAAGAGAAGAAUGAUAGGGAUGACCUGGGGUGGGGGGACAGCAAAACAUCUUAAAUGAUGACUGUAGUUAAUCAGAUGUGACCCCUCUAGGGCCCCUGGUUGUGGAAUUCUCGGGUGCCAA | 0.863
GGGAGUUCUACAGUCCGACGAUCUACCAGUCAGAGGUCAGGACUCCAUGAGUCCAGCUGCCACAAAGGGUUCAGCUUGGAGGUGACACCUCUUUGGUCUACAUUUGUACAAUGGAUGCAUCAAGUUUCUAAAUUGGAAUUCUCGGGUGCCAA | 0.258
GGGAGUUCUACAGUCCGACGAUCUAAAAACAAAUUGGAAGAAUAACCAGGACAGCCAAGUGAAGCAGCCACAGGGACCCAAGCAGUCGAGGUCUUUAAUGUGCCUGGAGAUGACUCUCUGCUAUUCAUGAAUCUGGAAUUCUCGGGUGCCAA | 0.563
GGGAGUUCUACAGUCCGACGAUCAAGAUCUAUGCCUUAGUGUUGUUUUUGUUGUCUGCUUUGAUGUAAAAGCAAGAGUAUUUGGAGCAAGAAGCUGCAAUGCGCCAAAUACACAAUAGGCCUUUUCUUUAUCAUGGAAUUCUCGGGUGCCAA | 0.491
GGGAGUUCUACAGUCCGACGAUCGGGACCAUAUUUCACAGAGCAAUGGAAAAGCUCCCUCUCCCCAACCCUCCUGCUCUGAGAGAAGAAAUCGAACUGAGGCUUCUUCUCUGGAGGUAAGGUUGCUGGUGGCCUGGAAUUCUCGGGUGCCAA | 0.323
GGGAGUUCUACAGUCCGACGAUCGGUUCCUCCCUCCCCACCUGCCCUCCUAGCUCCAGCACUGCCCCCGUGGCAGCCCACUUGGACCCCCCUAAAAGGAGGGAAUAGGAGGAGGGCAGGGUGAGUGGGGGCAAUGGAAUUCUCGGGUGCCAA | 0.212
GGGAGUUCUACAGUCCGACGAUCGACGGGCGGGACAGCAGGUCAGUGGAUCUUCACCGGAAGGUGCAGCUUCUCGGCAUCAGCGCAGCUGCACCACAGGCUGAGCUUACAGAGCUUCAGGCCCAGACUGGGGCUGGAAUUCUCGGGUGCCAA | 0.267
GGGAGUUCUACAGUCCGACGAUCUCAGUGCCUUGGAGCAGAAAGCCAGGGUCCUGAGUGGCUGAAAUAAAAGCCUCUGGUGGAACCUGCAGCGCUUUCCUUCCUUUCUUUACCGAAAAGAAGUCUUUCUUGUAUGGAAUUCUCGGGUGCCAA | 0.267
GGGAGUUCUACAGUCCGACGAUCGGUUUCUUCAUUUUCUUCCAUUACUUAGGAAAGAGUGGAAACUCCACUAAAAUUUCUCUGUGUUGUUACAGUCUUAGAGGUUGCAGUACUAUAUUGUAAGCUUUGGUGUUUGGAAUUCUCGGGUGCCAA | 0.691
